Measured values from different studies.
Numbered parts are unrelated; each lists some results of a single study.
Sequence of UniProt P47898 (whole entry, looked up): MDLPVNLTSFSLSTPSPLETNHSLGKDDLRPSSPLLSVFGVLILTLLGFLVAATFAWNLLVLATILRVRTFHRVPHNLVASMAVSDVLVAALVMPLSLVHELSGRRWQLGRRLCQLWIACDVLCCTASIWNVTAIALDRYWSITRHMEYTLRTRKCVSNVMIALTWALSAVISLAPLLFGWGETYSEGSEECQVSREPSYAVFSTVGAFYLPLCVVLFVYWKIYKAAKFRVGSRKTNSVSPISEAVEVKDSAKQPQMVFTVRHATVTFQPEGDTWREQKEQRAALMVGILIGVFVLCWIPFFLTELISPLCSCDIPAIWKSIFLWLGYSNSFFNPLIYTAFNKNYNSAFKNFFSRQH
Sequence of UniProt P62344 (whole entry, looked up): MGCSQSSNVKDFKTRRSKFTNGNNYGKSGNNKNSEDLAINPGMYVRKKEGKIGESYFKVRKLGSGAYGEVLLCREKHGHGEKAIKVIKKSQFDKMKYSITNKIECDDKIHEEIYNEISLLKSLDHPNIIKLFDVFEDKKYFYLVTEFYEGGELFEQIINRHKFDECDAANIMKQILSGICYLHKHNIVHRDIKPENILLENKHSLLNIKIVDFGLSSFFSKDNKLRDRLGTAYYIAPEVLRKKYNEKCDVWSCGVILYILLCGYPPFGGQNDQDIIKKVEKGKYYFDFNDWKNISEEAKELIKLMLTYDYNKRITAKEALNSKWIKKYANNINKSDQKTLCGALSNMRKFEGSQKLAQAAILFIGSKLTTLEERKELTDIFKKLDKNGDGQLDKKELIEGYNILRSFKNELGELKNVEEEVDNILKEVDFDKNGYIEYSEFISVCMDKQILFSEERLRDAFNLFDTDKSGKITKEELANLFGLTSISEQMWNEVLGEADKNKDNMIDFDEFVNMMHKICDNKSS

Sample 1 — mode: degrader; method: HiBiT; cells: HEK293; tested at: 10000 nM; endpoint: protein remaining
Target: CRBN/Zinc finger protein Helios (Homo sapiens, UniProt Q96SW2+Q9UKS7)
Sequence of UniProt Q96SW2 (whole entry, looked up): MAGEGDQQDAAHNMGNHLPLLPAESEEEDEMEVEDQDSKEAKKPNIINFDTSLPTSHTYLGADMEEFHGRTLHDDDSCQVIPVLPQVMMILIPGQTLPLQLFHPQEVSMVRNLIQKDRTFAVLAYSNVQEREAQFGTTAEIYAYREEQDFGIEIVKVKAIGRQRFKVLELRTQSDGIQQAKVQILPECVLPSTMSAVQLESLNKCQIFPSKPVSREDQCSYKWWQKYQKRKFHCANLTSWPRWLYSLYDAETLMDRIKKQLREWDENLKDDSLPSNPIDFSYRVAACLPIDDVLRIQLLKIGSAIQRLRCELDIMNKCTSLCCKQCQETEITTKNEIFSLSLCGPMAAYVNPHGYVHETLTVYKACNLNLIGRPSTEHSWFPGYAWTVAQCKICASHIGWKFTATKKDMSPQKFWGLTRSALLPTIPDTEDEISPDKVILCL
Sequence of UniProt Q9UKS7 (whole entry, looked up): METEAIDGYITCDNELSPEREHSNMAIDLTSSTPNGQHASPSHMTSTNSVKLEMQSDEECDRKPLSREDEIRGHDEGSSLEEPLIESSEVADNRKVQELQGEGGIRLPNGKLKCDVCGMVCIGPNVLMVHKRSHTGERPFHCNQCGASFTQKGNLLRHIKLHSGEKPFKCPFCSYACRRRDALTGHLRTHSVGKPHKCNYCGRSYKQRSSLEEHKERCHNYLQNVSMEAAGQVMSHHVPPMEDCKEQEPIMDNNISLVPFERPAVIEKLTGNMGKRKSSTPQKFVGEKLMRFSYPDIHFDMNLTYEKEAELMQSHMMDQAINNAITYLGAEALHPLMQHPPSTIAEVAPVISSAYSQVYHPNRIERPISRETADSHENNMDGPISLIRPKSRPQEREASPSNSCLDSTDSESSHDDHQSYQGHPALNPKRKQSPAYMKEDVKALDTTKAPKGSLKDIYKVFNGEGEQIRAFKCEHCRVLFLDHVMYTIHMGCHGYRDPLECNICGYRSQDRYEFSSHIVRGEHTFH
O=C1CCC(N2Cc3c(ccc4c3OCC43CCN(Cc4ccsc4)CC3)C2=O)C(=O)N1 (stereo not shown): 17.4%
O=C1CCC(N2Cc3c(ccc4c3OCC43CCN(Cc4ccccc4)CC3(F)F)C2=O)C(=O)N1 (stereo not shown): 33.8%
O=C1CCC(N2Cc3c(ccc4c3OCC43CCCN(Cc4ccccc4)CC3)C2=O)C(=O)N1 (stereo not shown): 90.5%
O=C1CCC(N2Cc3c(ccc4c3OCC43CCN(Cc4ccccc4)C3)C2=O)C(=O)N1 (stereo not shown): 67.4%
O=C1CCC(N2Cc3c(ccc4c3OCC43CCN(CC4CCCCC4)CC3)C2=O)C(=O)N1 (stereo not shown): 31.3%
O=C1CCC(N2Cc3c(ccc4c3OCC43CCN(Cc4ccccn4)CC3)C2=O)C(=O)N1 (stereo not shown): 36%

Sample 2 — mode: inhibitor; tested at: 10 µM; baseline: control; endpoint: remaining activity
Target: Diamine acetyltransferase 1 (Homo sapiens, UniProt P21673)
Residues (P21673 1-171): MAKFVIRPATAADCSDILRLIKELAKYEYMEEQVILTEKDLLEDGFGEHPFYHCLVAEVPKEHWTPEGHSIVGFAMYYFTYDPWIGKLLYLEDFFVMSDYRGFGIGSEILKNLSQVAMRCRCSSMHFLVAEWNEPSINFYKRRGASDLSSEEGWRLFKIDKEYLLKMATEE
CCCCCc1cc(O)c2c(c1)OC(C)(CCC=C(C)C)C=C2 (racemic): 91.1%
NCCc1c[nH]c2ccccc12: 97.4%
CC(C)c1ccc(CO)cc1: 108%
N#C[C@H](O[C@@H]1O[C@H](CO[C@@H]2O[C@H](CO)[C@@H](O)[C@H](O)[C@H]2O)[C@@H](O)[C@H](O)[C@H]1O)c1ccccc1: 95.8%

Sample 3 — read-out: enzyme activity; mode: inhibitor; tested at: 10 µM; endpoint: inhibition
Target: Calcium/calmodulin-dependent protein kinase type II subunit alpha (CAMK2A, Homo sapiens, UniProt Q9UQM7)
Sequence of UniProt Q9UQM7 (whole entry, looked up): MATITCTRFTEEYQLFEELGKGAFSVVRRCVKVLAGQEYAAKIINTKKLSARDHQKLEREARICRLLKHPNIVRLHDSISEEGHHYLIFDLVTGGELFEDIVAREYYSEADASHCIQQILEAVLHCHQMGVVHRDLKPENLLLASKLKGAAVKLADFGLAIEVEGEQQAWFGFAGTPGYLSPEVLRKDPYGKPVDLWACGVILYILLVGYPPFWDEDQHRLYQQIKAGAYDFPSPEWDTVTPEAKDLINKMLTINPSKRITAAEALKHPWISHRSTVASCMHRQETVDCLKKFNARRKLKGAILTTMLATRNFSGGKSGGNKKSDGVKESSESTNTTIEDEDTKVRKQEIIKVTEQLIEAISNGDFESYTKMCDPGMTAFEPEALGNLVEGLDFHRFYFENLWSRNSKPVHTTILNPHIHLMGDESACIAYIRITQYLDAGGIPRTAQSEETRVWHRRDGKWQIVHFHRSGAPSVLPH
C[C@H]1CCC[C@@H](O)CCCCCc2cc(O)cc(O)c2C(=O)O1: 6%
Cc1ncc(OC[C@@]2(c3cccc(F)c3)C[C@H]2C(=O)Nc2ccc(F)cn2)c(C)n1: -1%
CC(C)(O)[C@H]1O[C@H]2CC[C@@]3(C)[C@@](O)(CC[C@H]4Cc5c([nH]c6ccccc56)[C@@]43C)C2=CC1=O: -11%
C[C@@H](O)[C@@H]1NC(=O)[C@H](CCCCN)NC(=O)[C@@H](Cc2c[nH]c3ccccc23)NC(=O)[C@H](Cc2ccccc2)NC(=O)[C@@H](NC(=O)[C@H](N)Cc2ccccc2)CSSC[C@@H](C(=O)N[C@H](CO)[C@@H](C)O)NC1=O: -6%
C=C(C)c1cc2cc(C(C)=O)c(O)cc2o1: 37%
C[C@H]1CC[C@@H]2N(C1)C[C@H]1[C@@H]3C[C@H]4[C@@H](C[C@H](O)[C@H]5C[C@@H](O)CC[C@@]54C)[C@@H]3CC[C@@H]1[C@]2(C)O: 34%
CN(C(=O)/C=C/c1ccoc1)[C@@H]1CC[C@@]2(O)[C@H]3Cc4ccc(O)c5c4[C@@]2(CCN3CC2CC2)[C@H]1O5: 0%

Mixed results
Cc1c(N2CCNCC2)nc2ccc(Br)cc2c1C(=O)NC[C@H](CCC(=O)O)c1ccccc1Cl — inhibition (HTR5A (Homo sapiens, UniProt P47898); ligand displacement; 10 µM): 11.3%
Cc1nccc(COC(=O)N2C[C@@H]3[C@@H](CNC(=O)c4ccc5[nH]nnc5c4)[C@@H]3C2)n1 — remaining binding (CDPK1 (Plasmodium falciparum, UniProt P62344); cell-free assay, competition with immobilised ligand; 1 µM): 100%

Some of these lines once more (sample 3):
Cc1ncc(OC[C@@]2(c3cccc(F)c3)C[C@H]2C(=O)Nc2ccc(F)cn2)c(C)n1: -1%
CC(C)(O)[C@H]1O[C@H]2CC[C@@]3(C)[C@@](O)(CC[C@H]4Cc5c([nH]c6ccccc56)[C@@]43C)C2=CC1=O: -11%
C[C@@H](O)[C@@H]1NC(=O)[C@H](CCCCN)NC(=O)[C@@H](Cc2c[nH]c3ccccc23)NC(=O)[C@H](Cc2ccccc2)NC(=O)[C@@H](NC(=O)[C@H](N)Cc2ccccc2)CSSC[C@@H](C(=O)N[C@H](CO)[C@@H](C)O)NC1=O: -6%
